# Measured values of several laboratories.
# Protocols differ between the studies behind these lines.
# T1: RNA aptamer, 2'-F pyrimidines; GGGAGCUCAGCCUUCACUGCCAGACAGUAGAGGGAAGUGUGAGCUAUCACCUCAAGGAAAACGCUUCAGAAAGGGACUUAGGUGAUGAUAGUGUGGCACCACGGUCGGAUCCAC
# T2: RNA aptamer; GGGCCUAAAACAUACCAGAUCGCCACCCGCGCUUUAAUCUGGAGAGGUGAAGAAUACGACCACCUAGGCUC
# T3: RNA aptamer; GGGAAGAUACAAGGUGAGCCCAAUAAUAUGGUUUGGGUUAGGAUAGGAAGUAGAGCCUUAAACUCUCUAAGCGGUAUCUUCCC
# T4: RNA aptamer A13U; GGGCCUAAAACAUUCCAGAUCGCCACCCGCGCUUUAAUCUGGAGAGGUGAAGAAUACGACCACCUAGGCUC
# T5: RNA aptamer GAA^A junction to GUG^A; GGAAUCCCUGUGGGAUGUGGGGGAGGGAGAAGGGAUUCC
# T6: RNA aptamer G51U; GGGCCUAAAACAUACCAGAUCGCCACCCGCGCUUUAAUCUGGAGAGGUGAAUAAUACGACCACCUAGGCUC
# T7: RNA aptamer; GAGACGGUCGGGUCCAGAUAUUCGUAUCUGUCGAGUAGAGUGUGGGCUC
# T8: RNA aptamer; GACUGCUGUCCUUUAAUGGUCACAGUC
# T9: RNA aptamer, streptomycin-binding; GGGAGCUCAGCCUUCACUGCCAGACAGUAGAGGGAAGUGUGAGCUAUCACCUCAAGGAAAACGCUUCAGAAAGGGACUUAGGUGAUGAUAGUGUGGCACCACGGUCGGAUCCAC
target,test,conditions,measurement,value,SMILES
"T1, RNA aptamer, 2'-F pyrimidines",SPR,apparent,Kd,3320 nM,CNC1C(OC2OC(CO)C(N)C(O)C2O)OC2CC(N)C(OC3C(N)CC(NC(=O)CCOCCOCCOCCOCCOCCOCCOCCOCCOCCOCCOCCOCCNC(=O)CCCC[C@@H]4SC[C@@H]5NC(=O)N[C@@H]54)C(O)C3O)OC2C1O (stereo partly drawn)
"T2, RNA aptamer",fluorescence titration,"pH 7.5, 25 °C, MgCl2 10 mM",Kd,22.2 nM,CN(C)[C@@H]1C(=O)C(C(N)=O)=C(O)[C@@]2(O)C(=O)C3=C(O)c4c(O)cccc4C[C@H]3C[C@@H]12
"T3, RNA aptamer","competition with tracer, competitor, fluorescence quenching",,binding,binds weakly,CC1=N/C(=C\c2ccc(OCc3ccc(B(O)O)cc3)c(F)c2)C(=O)N1C
"T4, RNA aptamer A13U",fluorescence titration,"pH 7.5, 25 °C, MgCl2 10 mM",Kd,532 nM,CN(C)[C@@H]1C(=O)C(C(N)=O)=C(O)[C@@]2(O)C(=O)C3=C(O)c4c(O)cccc4[C@@](C)(O)[C@H]3[C@H](O)[C@@H]12
"T5, RNA aptamer GAA^A junction to GUG^A",fluorescence titration,,binding,binds weakly,CN1C=C/C(=C/C=C/c2sc3ccccc3[n+]2CC(=O)NCCOCCOCCOCCNC(=O)CCCC[C@@H]2SC[C@@H]3NC(=O)N[C@@H]32)c2ccccc21
"T6, RNA aptamer G51U",fluorescence titration,"pH 7.5, 25 °C, MgCl2 10 mM",Kd,2.93 nM,CN(C)[C@@H]1C(=O)C(C(N)=O)=C(O)[C@@]2(O)C(=O)C3=C(O)c4c(O)cccc4[C@@](C)(O)[C@H]3C[C@@H]12
"T7, RNA aptamer","competition with tracer, competitor, fluorescence quenching",,binding,binds weakly,CC1=N/C(=C\c2cc(Br)c(OC(=O)c3ccccc3SSc3ccccn3)c(Br)c2)C(=O)N1C
"T8, RNA aptamer",ITC,NaCl 200 mM,binding,binds weakly,NC[C@@H]1O[C@H](O[C@H]2[C@@H](O)[C@H](O[C@@H]3[C@@H](O)[C@H](N)C[C@H](N)[C@H]3O[C@H]3O[C@H](CN)[C@@H](O)[C@H](O)[C@H]3N)O[C@@H]2CO)[C@H](N)[C@@H](O)[C@@H]1O
"T9, RNA aptamer, streptomycin-binding",SPR,apparent,Kd,133 nM,CN[C@@H]1[C@H](O[C@H]2[C@H](O[C@H]3[C@H](O)[C@@H](O)[C@H](N=C(N)N)[C@@H](O)[C@@H]3N=C(N)N)O[C@@H](C)[C@]2(O)C=NNC(=O)CCOCCOCCOCCOCCNC(=O)CCCC[C@@H]2SC[C@@H]3NC(=O)N[C@@H]32)O[C@@H](CO)[C@H](O)[C@H]1O

# Excerpt of the above:
target,test,conditions,measurement,value,SMILES
"T7, RNA aptamer","competition with tracer, competitor, fluorescence quenching",,binding,binds weakly,CC1=N/C(=C\c2cc(Br)c(OC(=O)c3ccccc3SSc3ccccn3)c(Br)c2)C(=O)N1C
